Assay results of several laboratories.
Compare with care: the assays were run in different laboratories. “And” joins repeats or separate records; there may be more than shown. Numbers after ± are the reported error.
Ahsg: Alpha-2-HS-glycoprotein (Ahsg, Rattus norvegicus, UniProt P24090)
Chain of UniProt P24090 (whole entry, looked up): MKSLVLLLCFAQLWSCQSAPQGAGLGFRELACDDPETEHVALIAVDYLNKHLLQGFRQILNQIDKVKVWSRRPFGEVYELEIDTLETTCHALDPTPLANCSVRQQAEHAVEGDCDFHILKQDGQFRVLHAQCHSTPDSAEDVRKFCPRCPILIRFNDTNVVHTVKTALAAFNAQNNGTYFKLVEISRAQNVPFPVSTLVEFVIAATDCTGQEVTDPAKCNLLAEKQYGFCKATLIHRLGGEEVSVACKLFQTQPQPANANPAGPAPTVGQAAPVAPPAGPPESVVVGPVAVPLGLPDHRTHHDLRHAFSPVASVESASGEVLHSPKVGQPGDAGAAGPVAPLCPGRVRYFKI
GLP1R: Glucagon-like peptide 1 receptor (GLP1R, Homo sapiens, UniProt P43220)
Chain of UniProt P27361 (whole entry, looked up): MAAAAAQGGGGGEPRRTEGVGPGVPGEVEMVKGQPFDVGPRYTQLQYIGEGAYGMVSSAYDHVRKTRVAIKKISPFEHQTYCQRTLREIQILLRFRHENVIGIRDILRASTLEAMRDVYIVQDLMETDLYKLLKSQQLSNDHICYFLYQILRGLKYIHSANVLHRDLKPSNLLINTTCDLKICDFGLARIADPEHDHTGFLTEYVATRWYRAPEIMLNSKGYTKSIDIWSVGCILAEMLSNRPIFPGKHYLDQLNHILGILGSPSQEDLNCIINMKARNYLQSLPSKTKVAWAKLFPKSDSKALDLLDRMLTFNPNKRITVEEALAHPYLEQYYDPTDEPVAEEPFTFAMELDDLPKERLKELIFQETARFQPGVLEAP
Chain of UniProt O42275 (whole entry, looked up): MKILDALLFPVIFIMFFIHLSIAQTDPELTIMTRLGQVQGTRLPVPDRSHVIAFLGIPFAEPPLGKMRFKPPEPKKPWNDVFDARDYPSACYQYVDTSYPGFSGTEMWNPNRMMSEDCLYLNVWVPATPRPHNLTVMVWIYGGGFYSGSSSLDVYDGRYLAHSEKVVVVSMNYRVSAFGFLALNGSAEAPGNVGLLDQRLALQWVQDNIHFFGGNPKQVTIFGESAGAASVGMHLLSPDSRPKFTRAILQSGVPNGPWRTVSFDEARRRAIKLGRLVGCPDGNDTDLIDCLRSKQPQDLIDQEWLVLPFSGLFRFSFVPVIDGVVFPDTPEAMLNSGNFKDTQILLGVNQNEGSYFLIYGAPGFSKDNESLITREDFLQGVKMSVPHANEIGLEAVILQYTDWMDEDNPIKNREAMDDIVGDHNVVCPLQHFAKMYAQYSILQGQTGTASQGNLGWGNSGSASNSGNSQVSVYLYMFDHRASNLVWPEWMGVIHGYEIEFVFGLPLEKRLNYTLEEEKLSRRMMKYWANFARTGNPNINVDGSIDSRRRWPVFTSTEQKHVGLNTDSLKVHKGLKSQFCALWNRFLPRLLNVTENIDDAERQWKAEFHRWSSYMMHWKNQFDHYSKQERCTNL
Chain of UniProt P00942 (whole entry, unmodified, looked up): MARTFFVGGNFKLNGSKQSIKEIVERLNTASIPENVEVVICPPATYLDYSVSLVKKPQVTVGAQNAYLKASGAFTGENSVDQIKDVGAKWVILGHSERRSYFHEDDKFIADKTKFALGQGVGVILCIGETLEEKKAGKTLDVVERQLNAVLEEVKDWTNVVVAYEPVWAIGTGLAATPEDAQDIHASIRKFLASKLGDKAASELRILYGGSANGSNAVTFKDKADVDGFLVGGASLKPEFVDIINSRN
Chain of UniProt Q08881 (whole entry, looked up): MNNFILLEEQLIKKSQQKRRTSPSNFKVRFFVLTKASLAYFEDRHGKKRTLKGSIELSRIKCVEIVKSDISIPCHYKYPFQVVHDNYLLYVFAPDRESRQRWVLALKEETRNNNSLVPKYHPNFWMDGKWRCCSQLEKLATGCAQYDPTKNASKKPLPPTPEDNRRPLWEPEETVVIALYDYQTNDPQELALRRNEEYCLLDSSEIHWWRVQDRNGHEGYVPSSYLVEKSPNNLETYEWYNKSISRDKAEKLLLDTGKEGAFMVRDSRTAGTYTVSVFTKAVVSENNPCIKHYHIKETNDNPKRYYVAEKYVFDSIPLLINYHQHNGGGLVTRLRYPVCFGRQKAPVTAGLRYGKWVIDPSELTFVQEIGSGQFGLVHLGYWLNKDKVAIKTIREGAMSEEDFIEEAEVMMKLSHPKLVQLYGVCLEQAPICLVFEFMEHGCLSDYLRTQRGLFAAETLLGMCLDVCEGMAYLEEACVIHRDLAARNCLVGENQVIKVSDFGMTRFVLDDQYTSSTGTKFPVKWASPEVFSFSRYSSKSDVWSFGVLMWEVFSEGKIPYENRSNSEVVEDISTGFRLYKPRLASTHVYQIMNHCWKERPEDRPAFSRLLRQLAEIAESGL
Chain of UniProt P49662 (whole entry, looked up): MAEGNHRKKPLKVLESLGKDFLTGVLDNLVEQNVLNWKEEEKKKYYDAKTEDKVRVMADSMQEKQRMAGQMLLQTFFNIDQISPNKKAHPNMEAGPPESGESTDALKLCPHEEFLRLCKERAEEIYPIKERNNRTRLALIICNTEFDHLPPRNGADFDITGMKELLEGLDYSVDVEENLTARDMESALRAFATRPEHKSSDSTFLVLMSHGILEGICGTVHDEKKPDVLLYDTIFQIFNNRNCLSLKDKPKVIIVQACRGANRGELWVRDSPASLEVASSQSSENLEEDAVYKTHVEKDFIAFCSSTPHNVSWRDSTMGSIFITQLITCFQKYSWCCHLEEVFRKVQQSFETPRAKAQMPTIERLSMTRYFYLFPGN
Chain of UniProt Q9NSD7 (whole entry, looked up): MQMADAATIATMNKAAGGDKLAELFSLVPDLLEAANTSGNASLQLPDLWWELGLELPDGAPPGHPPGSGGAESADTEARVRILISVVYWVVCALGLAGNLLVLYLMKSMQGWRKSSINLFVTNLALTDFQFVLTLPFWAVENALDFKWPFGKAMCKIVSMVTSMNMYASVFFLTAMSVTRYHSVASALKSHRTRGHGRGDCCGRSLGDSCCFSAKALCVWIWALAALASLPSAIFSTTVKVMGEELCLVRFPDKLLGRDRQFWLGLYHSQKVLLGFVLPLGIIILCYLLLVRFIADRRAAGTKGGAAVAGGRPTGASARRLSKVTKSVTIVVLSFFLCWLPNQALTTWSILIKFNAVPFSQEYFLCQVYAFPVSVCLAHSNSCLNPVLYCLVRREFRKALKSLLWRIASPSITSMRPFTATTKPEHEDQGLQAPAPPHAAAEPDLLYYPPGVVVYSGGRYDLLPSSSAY
Chain of UniProt P59676 (whole entry, looked up): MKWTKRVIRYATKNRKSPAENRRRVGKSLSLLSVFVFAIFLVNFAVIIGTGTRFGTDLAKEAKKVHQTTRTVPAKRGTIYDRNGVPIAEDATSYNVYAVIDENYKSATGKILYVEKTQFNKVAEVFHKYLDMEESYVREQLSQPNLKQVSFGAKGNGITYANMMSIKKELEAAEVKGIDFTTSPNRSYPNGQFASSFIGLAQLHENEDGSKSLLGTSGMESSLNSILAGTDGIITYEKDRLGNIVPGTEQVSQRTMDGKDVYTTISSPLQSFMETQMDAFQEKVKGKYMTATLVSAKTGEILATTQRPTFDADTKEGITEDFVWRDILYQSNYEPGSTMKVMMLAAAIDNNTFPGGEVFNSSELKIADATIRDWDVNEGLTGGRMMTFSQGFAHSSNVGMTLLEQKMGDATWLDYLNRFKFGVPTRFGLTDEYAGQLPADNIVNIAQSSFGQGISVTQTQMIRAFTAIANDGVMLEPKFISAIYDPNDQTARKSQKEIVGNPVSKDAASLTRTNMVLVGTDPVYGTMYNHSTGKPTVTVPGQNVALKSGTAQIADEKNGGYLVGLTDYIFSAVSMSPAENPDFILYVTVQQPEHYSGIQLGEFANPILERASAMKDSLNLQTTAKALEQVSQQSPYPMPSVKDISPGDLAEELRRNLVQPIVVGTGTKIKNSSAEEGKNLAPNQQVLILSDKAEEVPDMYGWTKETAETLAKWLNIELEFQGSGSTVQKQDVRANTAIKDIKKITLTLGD
Chain of UniProt Q5XI64 (whole entry, looked up): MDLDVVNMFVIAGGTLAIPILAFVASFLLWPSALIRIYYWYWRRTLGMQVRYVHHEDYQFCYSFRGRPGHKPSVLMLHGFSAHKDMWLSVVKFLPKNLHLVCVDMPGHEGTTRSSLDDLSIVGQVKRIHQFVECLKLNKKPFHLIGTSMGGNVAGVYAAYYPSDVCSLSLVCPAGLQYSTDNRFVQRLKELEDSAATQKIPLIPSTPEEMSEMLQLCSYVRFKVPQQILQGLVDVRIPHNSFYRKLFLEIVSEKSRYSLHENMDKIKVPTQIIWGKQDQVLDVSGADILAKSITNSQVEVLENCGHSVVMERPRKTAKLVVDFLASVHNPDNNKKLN
Chain of UniProt Q13304 (whole entry, looked up): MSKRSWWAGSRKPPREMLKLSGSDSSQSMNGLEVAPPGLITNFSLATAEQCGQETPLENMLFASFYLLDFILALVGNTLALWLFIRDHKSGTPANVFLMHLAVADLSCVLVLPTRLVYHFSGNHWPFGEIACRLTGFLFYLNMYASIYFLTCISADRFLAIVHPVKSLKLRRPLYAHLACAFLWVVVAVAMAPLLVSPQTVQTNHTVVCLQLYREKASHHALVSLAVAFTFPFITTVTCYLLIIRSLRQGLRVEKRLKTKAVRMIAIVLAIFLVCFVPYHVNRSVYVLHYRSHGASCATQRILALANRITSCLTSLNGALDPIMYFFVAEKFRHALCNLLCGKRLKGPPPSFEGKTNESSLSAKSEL

| SMILES | target | assay | test system | conditions | scale | quantity | value |
| --- | --- | --- | --- | --- | --- | --- | --- |
| COc1cc2nccc(Oc3ccc(NC(=O)c4cc5c(n(-c6ccccc6)c4=O)CCCC5=O)nc3)c2cc1OC | MST1R (Homo sapiens, UniProt Q04912) | cell viability, CellTiter-Glo | Ba/F3 expressing recombinant kinase | – | baseline: MST1R IC50 over AXL IC50 | selectivity ratio | > 100 |
| COc1ccc(Nc2nn3c(-c4ccccc4)ccnc3c2C(=O)Nc2ccc(Cl)cc2)cc1 | α-glucosidase | SDS-PAGE, refers to: 1 kDa band | – | 1 mg/mL | – | decrease in band quantity | 48.6% |
| CN1CCN(c2cc(-c3ccncc3)c(-c3ccc4ccccc4c3)nn2)CC1 | GRM2 (Homo sapiens, UniProt Q14416) | agonist, FLIPR | – | 12.5 µM | – | activation | 6% |
| CC(=O)C(c1ccccc1)c1ccccc1 | NR1H3 (Homo sapiens, UniProt Q13133) | – | – | concentration not given | – | activity | inactive |
| Nc1ncnc2c1ncn2[C@@H]1O[C@H](COP(=O)(O)OP(=O)(O)O)[C@@H](O)[C@H]1O | Cell cycle histidine kinase CckA, G318A; cytoplasmic region (Caulobacter vibrioides, UniProt Q9X688, G318A) | binding, ITC | – | together with: without c-di-GMP | – | ΔH | -0.49 ± 0.0738 kcal/mol |
| CCN(CC)CCCC[C@H](NC(=O)[C@H](CC(C)C)NC(=O)[C@H](C)NC(=O)[C@H](Cc1ccccc1)NC(=O)c1ccc(C(C)(C)C)cc1)C(=O)N[C@@H](CO)C(=O)OC | HRH2 (Homo sapiens, UniProt P25021) | antagonist, radioligand binding | – | 10 µM | baseline: control binding | specific binding | 98.6% |
| CCCCCCCCCC(=O)CC(=O)N[C@H]1CCOC1=O | qscR (Pseudomonas aeruginosa, UniProt G3XD77) | protein-ligand complex stability, differential scanning fluorimetry | – | – | – | melting temperature | 46.3 °C |
| COc1cc(N)c(Cl)cc1C(=O)NC1CN2CCC1CC2 (stereo not shown) | GPR17 (Homo sapiens, UniProt Q13304) | β-arrestin recruitment, TANGO luminescence | – | concentration not given | baseline: basal luminescence | log2 fold change | -0.02 |
| COc1cc(O)cc(/C=C/c2ccc(O)cc2)c1 | O-methyltransferase (Sorghum bicolor, UniProt A0A1B6PFV1) | ITC | – | concentration not given, together with: SAH+ | – | binding stoichiometry | 1.11 ± 0.008 |
| CN(C(=O)n1cnc(-c2ccc[n+]([O-])c2)c1)C1CCCCC1 | Monoacylglycerol lipase ABHD6 (Abhd6, Rattus norvegicus, UniProt Q5XI64) | enzyme activity, ABPP | rat, brain | oral, 30 mg/kg/day, 28 days | baseline: vehicle | fold change | -11.7 |
| CC(C)NC[C@H](O)c1ccc(O)c(O)c1 | OCT1 human | binding, frontal displacement chromatography | – | unit not given | baseline: higher Ki over lower Ki | enantioselectivity | 1.5 |
| CN[C@@H]1C[C@H]2O[C@@](C)([C@@H]1OC)n1c3ccccc3c3c4c(c5c6ccccc6n2c5c31)C(=O)NC4 | CDC2-like kinase 1 (Trypanosoma brucei brucei, UniProt Q382U0) | kinase activity, ADP-Glo | – | 0.1562 µM | – | remaining activity | 42.6% |
| [2H]c1c([2H])c([C@]2([2H])CCCN2C(=O)C(C)(C)Oc2ccc3cn[nH]c3c2)c([2H])c([2H])c1C([2H])([2H])[2H] | ITK (Homo sapiens, UniProt Q08881) | KINOMEscan | – | 1 µM | baseline: DMSO control | remaining binding | 77% |
| COC(=O)[C@@]1(O)C[C@H]2O[C@]1(C)n1c3ccccc3c3c4c(c5c6ccccc6n2c5c31)C(=O)NC4 | MAPK3 (Homo sapiens, UniProt P27361) | ADP-Glo | – | 631 nM, together with: MBP substrate | – | kinase activity | 10.4% and 23.2% and 19.9% |
| COc1cc(C)c2[nH]cc(/C=N/NC(=N)NCCc3ccc(Cl)c(Cl)c3)c2c1 | RXFP3 (Homo sapiens, UniProt Q9NSD7) | – | – | – | – | Emax | 96 ± 10% |
| COc1ccc(N2C(=O)N(c3c(C)cccc3Cl)Cc3cnc(Nc4ccc(C5CCN(C)CC5)cc4OC)nc32)nc1 | ALK (Homo sapiens, UniProt Q9UM73) | kinase activity | – | 0.5 µM | – | inhibition | 32% |
| O=C(Nc1cccnn1)N1CCC(=Cc2cccc(Oc3ccc(C(F)(F)F)cn3)c2)CC1 | Ahsg | competitive ABPP with azido-FP probe | rat brain soluble fraction | 0.01 µM, unit not given | baseline: DMSO | probe labelling | -1.2 |
| COc1ccc(F)cc1C(=O)NCc1ccc(-c2nn([C@@H](C)C(F)(F)F)c(N)c2C(N)=O)cc1 | ERBB4 (Homo sapiens, UniProt Q15303) | enzyme activity | – | – | baseline: ERBB4 over BTK | selectivity ratio | 4.2 |
| CCOC(=O)COc1ccc2c(=O)c3ccccc3oc2c1 | ache (Electrophorus electricus, UniProt O42275) | enzyme activity | – | 1.68 µM, together with: substrate 0.86 mM | higher = faster reaction | reaction velocity | 0.001 a.u. |

| SMILES | target | assay | test system | conditions | scale | quantity | value |
| --- | --- | --- | --- | --- | --- | --- | --- |
| CO/N=C(\C(=O)N[C@@H]1C(=O)N2C(C(=O)O)=C(CSc3nc(=O)c(=O)[nH]n3C)CS[C@H]12)c1csc(N)n1 | Penicillin-binding protein 2a (pbp2a, Streptococcus pneumoniae, UniProt Q8DNB6) | inhibitor | – | – | – | kinact/KI | 610 ± 280 M⁻¹ s⁻¹ |
| COc1cc2c(NC3CCN(C)CC3)cc(-c3ccc(C)o3)nc2cc1OCCCN1CCCC1 | DNMT1 (Homo sapiens, UniProt P26358) | enzyme activity | – | 3703.70 nM | – | inhibition | 51% |
| CCCCCCCCCC(=O)NC1CCCC1 | qscR, DNA-bound (Pseudomonas aeruginosa, UniProt G3XD77) | DNA binding, ligand, EMSA | – | saturating ligand | – | Hill slope | 3.1 |
| CC[C@H](C)[C@H](NC(=O)[C@H](Cc1ccccc1)NC(=O)[C@H](CCC(=O)O)NC(=O)[C@H](CCCNC(=N)N)NC(=O)[C@H](C)NC(=O)[C@H](C)NC(=O)[C@H](CCC(N)=O)NC(=O)[C@H](CCC(=O)O)NC(=O)[C@H](CCC(=O)O)NC(=O)[C@H](CC(C)C)NC(=O)[C@H](Cc1ccc(O)cc1)NC(=O)[C@H](CO)NC(=O)[C@H](CO)NC(=O)[C@@H](NC(=O)[C@H](CC(=O)O)NC(=O)[C@H](CO)NC(=O)[C@@H](NC(=O)[C@H](Cc1ccccc1)NC(=O)[C@@H](NC(=O)CNC(=O)[C@H](CCC(=O)O)NC(=O)[C@H](C)NC(=O)CCc1cnc[nH]1)[C@@H](C)O)[C@@H](C)O)C(C)C)C(=O)N[C@@H](C)C(=O)N[C@@H](Cc1c[nH]c2ccccc12)C(=O)N[C@@H](CC(C)C)C(=O)N[C@H](C(=O)N[C@@H](CCCNC(=N)N)C(=O)NCC(=O)N[C@@H](CCCNC(=N)N)C(=O)N[C@@H](CCCCNC(=O)COCCOCCNC(=O)COCCOCCNC(=O)CC[C@H](NC(=O)CCCCCCCCCCCCCCCCC(=O)O)C(=O)O)C(=O)NCC(=O)NCC(=O)N[C@@H](CO)C(=O)N[C@@H](CCCCNC(=O)[C@H](CCCCNc1c(NCCCCCN(O)C(=O)CCC(=O)NCCCCCN(O)C(=O)CCC(=O)NCCCCCN(O)C(C)=O)c(=O)c1=O)Nc1c(NCCCCCN(O)C(=O)CCC(=O)NCCCCCN(O)C(=O)CCC(=O)NCCCCCN(O)C(C)=O)c(=O)c1=O)C(=O)O)C(C)C | GLP1R | cAMP reporter gene, agonist, CRE luciferase | BHK | without Zr, 0% HSA | – | EC50 | 0.0056 nM |
| CN(C(=O)n1cnc(-c2ccc[n+]([O-])c2)c1)C1CCCCC1 | Ahsg | competitive ABPP with azido-FP probe | rat brain soluble fraction | 10 µM, unit not given | baseline: DMSO | probe labelling | -12.1 |
| CC12CCC(CC1)C(C)(C)O2 | 1,8-cineole 2-endo-monooxygenase (cinA, Citrobacter braakii, UniProt Q8VQF6) | product per NADPH consumed, substrate, GC-MS | – | wild-type enzyme variant | – | coupling efficiency | 97.8% |
| O=C[C@H](O)COP(=O)(O)O | TPI1 (Saccharomyces cerevisiae, UniProt P00942, Y208T) | substrate, GPDH/NADH-coupled | – | pH 5.7, 25 °C | – | Km | ~26 mM |
| C[C@H]1COCCN1c1nc(NCc2cccnc2C(F)(F)F)c2cccnc2n1 | ADRB1 (Homo sapiens, UniProt P08588) | binding | – | CEREP panel | – | IC50 | > 100000 nM |
| C[C@H]1CN(c2n[nH]c3nc(N[C@H]4CC[C@H](NS(=O)(=O)CCC(F)(F)F)CC4)ncc23)CCO1 | Paxillin (PXN, Homo sapiens, UniProt P49023) | competitor, Kinobeads competition, refers to: PXN | human cell extract | 0.032 µM | baseline: vehicle | relative abundance | 0.94 |
| C[n+]1cn([C@@H]2O[C@H](COP(=O)([O-])O)[C@@H](O)[C@H]2O)c2nc(N)[nH]c(=O)c21 | m7GpppX diphosphatase (DCS1, Saccharomyces cerevisiae, UniProt Q06151, H268N) | binding, ITC | – | – | – | ΔH | -8.37 kcal/mol |
| O=C(c1ccc(Cl)cc1)N1CCN2C(=O)N(OC(=O)N3CCOc4ccccc43)C(=O)C2C1 (stereo not shown) | PREPL (Homo sapiens, UniProt Q4J6C6) | MS-based ABPP | SW-620 conditioned medium | 10 µM, 1 h, 37 °C | baseline: compound over DMSO, lower = more inhibition | median protein ratio | 1.1 |
| CC[C@H](C)[C@H](NC(=O)[C@H](Cc1ccccc1)NC(=O)[C@H](CCC(=O)O)NC(=O)[C@H](CCCNC(=N)N)NC(=O)[C@H](C)NC(=O)[C@H](C)NC(=O)[C@H](CCC(N)=O)NC(=O)[C@H](CCC(=O)O)NC(=O)[C@H](CCC(=O)O)NC(=O)[C@H](CC(C)C)NC(=O)[C@H](Cc1ccc(O)cc1)NC(=O)[C@H](CO)NC(=O)[C@H](CO)NC(=O)[C@H](CCCCNc1c(NCCCCCN(O)C(=O)CCC(=O)NCCCCCN(O)C(=O)CCC(=O)NCCCCCN(O)C(C)=O)c(=O)c1=O)NC(=O)[C@H](CC(=O)O)NC(=O)[C@H](CO)NC(=O)[C@@H](NC(=O)[C@H](Cc1ccccc1)NC(=O)[C@@H](NC(=O)CNC(=O)[C@H](CCC(=O)O)NC(=O)[C@H](C)NC(=O)CCc1cnc[nH]1)[C@@H](C)O)[C@@H](C)O)C(=O)N[C@@H](C)C(=O)N[C@@H](Cc1c[nH]c2ccccc12)C(=O)N[C@@H](CC(C)C)C(=O)N[C@H](C(=O)N[C@@H](CCCCNc1c(NCCCCCN(O)C(=O)CCC(=O)NCCCCCN(O)C(=O)CCC(=O)NCCCCCN(O)C(C)=O)c(=O)c1=O)C(=O)NCC(=O)N[C@@H](CCCNC(=N)N)C(=O)N[C@@H](CCCCNC(=O)COCCOCCNC(=O)COCCOCCNC(=O)CC[C@H](NC(=O)CCCCCCCCCCCCCCCCC(=O)O)C(=O)O)C(=O)O)C(C)C | GLP1R | cAMP reporter gene, agonist, CRE luciferase | BHK | without Zr, 0% HSA | – | EC50 | 0.12 nM |
| CC[C@H](C)[C@H](NC(C)=O)C(=O)N[C@@H](CCC(=O)O)C(=O)N[C@H](C(=O)N[C@H](C=O)CC(=O)O)[C@@H](C)O | Caspase-4 (CASP4, Homo sapiens, UniProt P49662) | – | – | – | – | Hill slope | -1.36 |
| CC1(C)S[C@@H]2[C@H](NC(=O)[C@H](N)c3ccccc3)C(=O)N2[C@H]1C(=O)O | Penicillin-binding protein 2X (Streptococcus pneumoniae R6, UniProt P59676) | inhibitor | Streptococcus pneumoniae | – | – | kinact/KI | 59000 ± 6600 M⁻¹ s⁻¹ |
| CC[C@H](C)[C@@H]1NC(=O)[C@H](Cc2c[nH]c3ccccc23)NC(=O)[C@H](Cc2ccc(O)cc2)NC(=O)CSC[C@@H](C(N)=O)NC(=O)[C@H]([C@@H](C)O)NC(=O)[C@H](CO)NC(=O)[C@H](C(C)C)NC(=O)[C@H](Cc2ccc(O)cc2)NC(=O)[C@H](CCCNC(=N)N)NC(=O)[C@H](Cc2ccc(O)cc2)NC(=O)[C@H]([C@@H](C)O)NC(=O)[C@H]([C@@H](C)O)NC(=O)[C@H](Cc2c[nH]c3ccccc23)NC(=O)[C@H](CO)NC(=O)[C@H](CC(N)=O)NC(=O)[C@H](CO)NC1=O | Vacuolar protein sorting-associated protein 26A/Vacuolar protein sorting-associated protein 35, Vps35 residues 1–172 (Homo sapiens, UniProt O75436+Q96QK1) | ITC | – | 25 °C | – | -TΔS | -2.5 ± 2.5 kcal/mol |
| Clc1cc2c(cc1Cl)Oc1cc(Cl)c(Cl)cc1O2 | Uncharacterized protein (Takifugu rubripes, UniProt Q4JHL5) | reporter gene, agonist, dual-luciferase | COS-7 | 24 h | – | EC80 | 1.43 ± 0.73 nM |
| CC(C)[C@@H](O)CC[C@@H](C)[C@H]1CC[C@H]2[C@@H]3CC=C4C[C@@H](O)CC[C@]4(C)[C@H]3CC[C@]12C | Glutamate NMDA receptor; GRIN1/GRIN2B (GRIN1/GRIN2B, Homo sapiens, UniProt Q05586+Q13224, R755A) | ion current, positive allosteric modulator, two-electrode voltage clamp | Xenopus oocytes | 10 µM, GluN1-R755A mutant, together with: 100 µM glutamate and glycine | baseline: absence of compound | current potentiation | 156 ± 5.8% |
| CCCc1scc2c1-c1nc(SCC(=O)C(C)(C)C)ncc1CC2 | Dual specificity protein phosphatase 10, catalytic domain (Homo sapiens, UniProt Q9Y6W6) | X-ray co-crystal structure | – | concentration not given | – | active site volume | 51.8 ± 1 Å³ |
